Published values of several laboratories.
A part holds a random share of what one study measured. ± gives the spread as reported.

Block 1 — effect on: enzyme activity; action: inhibitor; tested at: 20 µM; setting: hit confirmation, no DTT
Target: Replicase polyprotein 1ab, main protease (rep, Severe acute respiratory syndrome coronavirus 2, UniProt P0DTD1)
| SMILES | inhibition |
| --- | --- |
| CC(Cc1ccc(O)c(O)c1)C(C)Cc1ccc(O)c(O)c1 (stereo not drawn) | 101% |
| CNS(=O)(=O)C[C@H]1CC[C@H](N(C)c2ncnc3[nH]ccc23)CC1 | 52.5% |
| COc1cc(C(=S)N2CCOCC2)ccc1O | 99.4% |

Block 2 — action: inhibitor; tested at: 20 µM
Target: Replicase polyprotein 1ab, nsp13 helicase (rep, Severe acute respiratory syndrome coronavirus 2, UniProt P0DTD1)
| SMILES | inhibition [%] |
| --- | --- |
| OCc1c[nH]c2ccccc12 | 1.24 |
| CC(C)=CCC[C@](C)(O)[C@H]1CC[C@]2(C)[C@@H]1[C@H](O)C[C@@H]1[C@@]3(C)CC[C@H](O[C@@H]4O[C@H](CO)[C@@H](O)[C@H](O)[C@H]4O[C@@H]4O[C@H](CO)[C@@H](O)[C@H](O)[C@H]4O)C(C)(C)[C@@H]3CC[C@]12C | 1.18 |
| CC(C)Oc1cccc(-n2c(CCc3c[nH]c4ccc(Br)cc34)nc3ccccc3c2=O)c1 | 7.44 |
| CCCCOc1cc(C(=O)OCCN(CC)CC)ccc1N | 7.6 |
| COc1ccc(Cl)cc1C(=O)NCCc1ccc(S(=O)(=O)NC(=O)NC2CCCCC2)cc1 | 6.67 |
| Cc1ccc(CCCO)c(NCc2ccc3nc(NCCCN4CCOCC4)n(Cc4nc(C)ccc4O)c3c2)c1 | 6.47 |
| CCn1cc(C(=O)O)c(=O)c2cnc(N3CCNCC3)nc21 | 7.41 |

Block 3 — cell line: HEK-293T/ACE2; tested at: 10 µM; time: 16 h; baseline: vehicle
| Compound | viability |
| --- | --- |
| OC(c1cc(C(F)(F)F)nc2c(C(F)(F)F)cccc12)C1CCCCN1 (stereo not drawn) | 94.8% |
| Cc1c(-c2ccccc2)oc2c(C(=O)OCCN3CCCCC3)cccc2c1=O | 101% |
| COc1ccc2[nH]c([S+]([O-])Cc3ncc(C)c(OC)c3C)nc2c1 (stereo not drawn) | 100% |
| CNC(=O)c1ccccc1Sc1ccc2c(/C=C/c3ccccn3)n[nH]c2c1 | 65.5% |

Mixed results
| Compound | test system | setting | quantity | value |
| --- | --- | --- | --- | --- |
| CC[C@H](C)[C@H](NC(=O)[C@H](CC(C)C)NC(=O)[C@H](Cc1c[nH]c2ccccc12)NC(=O)[C@H](CCC(N)=O)NC(=O)[C@@H](NC(=O)[C@H](Cc1ccccc1)NC(=O)[C@H](C)NC(=O)[C@H](CCCCNC(=O)COCCOCCNC(=O)COCCOCCNC(=O)CC[C@H](NC(=O)CCCCCCCCCCCCCCCCCCC(=O)O)C(=O)O)NC(=O)[C@H](CCC(N)=O)NC(=O)[C@H](C)NC(=O)[C@@H](NC(=O)[C@H](CCCCN)NC(=O)[C@H](CC(=O)O)NC(=O)[C@H](CC(C)C)NC(=O)C(C)(C)NC(=O)[C@@H](NC(=O)[C@H](CO)NC(=O)[C@H](Cc1ccc(O)cc1)NC(=O)[C@H](CC(=O)O)NC(=O)[C@H](CO)NC(=O)[C@@H](NC(=O)[C@H](Cc1ccccc1)NC(=O)[C@@H](NC(=O)CNC(=O)[C@H](CCC(=O)O)NC(=O)C(C)(C)NC(=O)[C@@H](N)Cc1ccc(O)cc1)[C@@H](C)O)[C@@H](C)O)[C@@H](C)CC)[C@@H](C)CC)C(C)C)C(=O)N[C@@H](C)C(=O)NCC(=O)NCC(=O)N1CCC[C@H]1C(=O)N[C@@H](CO)C(=O)N[C@@H](CO)C(=O)NCC(=O)N[C@@H](C)C(=O)N1CCC[C@H]1C(=O)N1CCC[C@H]1C(=O)N1CCC[C@H]1C(=O)N[C@@H](CO)C(N)=O | healthy subjects, serum | oral, 5 mg, titrated upward, day 29, multiple ascending dose | ALT activity | 23 ± 5.6 U/L |

For quick reference, copied from above (block 1):
| SMILES | inhibition |
| --- | --- |
| COc1cc(C(=S)N2CCOCC2)ccc1O | 99.4% |
